Experimental data of several laboratories.
Compare with care: the assays were run in different laboratories. Values joined by “and” are separate records of one study, mostly repeats; a detail may differ.

| SMILES | cell line | assay | conditions | how to read | viability |
| --- | --- | --- | --- | --- | --- |
| Nc1ncnc2c1ncn2[C@@H]1O[C@H](CO)[C@@H](O)[C@H]1O | activated human T cells |  | 31.6 µM, 72 h | higher = more viable cells | 70.4 a.u. and 69.2 a.u. and 61.6 a.u. |
| COc1ccc(-n2nc(C(C)=O)s/c2=N\N=C(/C)c2ccc(NC(=O)c3ccc(C)cc3)cc2)cc1 | MCF7 |  | 0.078 µM |  | 85.5% |
| O=C(NOC[C@H](O)CO)c1ccc(F)c(F)c1Nc1ccc(I)cc1F | A549 |  | 5 µM, 72 h |  | 34.5% |
| CC(=O)c1nn(-c2ccc(Cl)cc2)/c(=N/N=C(\C)c2ccc(NC(=O)c3ccc(C)cc3)cc2)s1 | MCF7 |  | 0.156 µM |  | 99.8% |
| Cc1cccc(-c2[nH]c(CNc3ccccc3F)nc2-c2ccc3ncnn3c2)n1 | bone marrow CD138+ myeloma cells | XTT | 1.2 µM, phenol red-free RPMI |  | 16% |
| Cc1ccc(CNC(=O)Cn2cc(CSc3nc4ccccc4[nH]3)nn2)cc1 | Caco-2 | MTT | 15.6 ppm |  | 40% |
| C[C@H](NC(=O)C(=O)Nc1ccccc1C(C)(C)C)C(=O)N[C@@H](CC(=O)O)C(=O)COc1c(F)c(F)cc(F)c1F | EA.hy926 | apoptosis, CellTiter-Glo | concentration not given, with: TRAIL |  | 88.7% and 81.6% |
| Cn1cnc2c(F)c(Nc3ccc(Br)cc3F)c(C(=O)NOCCO)cc21 | A549 |  | 0.1562 µM, 72 h |  | 82.6% |
